{"data": "Published values pooled from the literature", "note": "Every numbered part comes from another study and shows a few of its results, in no order. Substitutions count along the parent as printed."}
{"data": "Set 1", "target": "RNA binding protein fox-1 homolog 2, RRM domain, GST-SBP tag (RBFOX2, Homo sapiens, UniProt O43251-10, residues 100-194)", "technique": "RNA Bind-n-Seq", "molecule type": "RNA", "sample": "in vitro", "concentration": "365 nM", "notes": "natural RNA segment, single round, ends assumed", "baseline": "no-protein control", "reading": "higher = stronger binding", "shared flanks, not repeated": "GGGAGUUCUACAGUCCGACGAUC … UGGAAUUCUCGGGUGCCAA", "Construct (chain)": "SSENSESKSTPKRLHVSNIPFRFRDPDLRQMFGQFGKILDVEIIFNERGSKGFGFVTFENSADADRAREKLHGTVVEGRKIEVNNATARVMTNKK"}
{"Strand": "GGCUUUUAUCCACCUUGAAUCCCUAUCCUCCUCUUUGUAGUUGUCGGUCUCACUGAUAACAGCUCCAGAAAAAAAGACAAGGCUCCCCCUCUGACCCUUCCUGUUGGUAU", "RBNS enrichment (R)": 0.343}
{"Strand": "UUAAACAAGAGAGAUAAGAGGAAAAUGCAACCACCACAUCUGACUUGCCCAAUGUAGACUUUCCUUUAUUAGAUUGAAGUACACAACCUAAUAUGAUAUAUUAUUUUGUA", "RBNS enrichment (R)": 0.604}
{"Strand": "GAAAUAAGUGACCCAACAAAAUUUAUUCAUCUGUUAUGGGUAAGAUCUGCCAUAAAUUCUUCCUAAAUAAUUUGUUUACUAACUCUUUAGGCCACUGUGCUUUGCGGUCC", "RBNS enrichment (R)": 0.557}
{"Strand": "AACGCUUAACCUUCUGUUAGCCAAUAUAUAAUUAAUGCAUGCUACUCCAUGAAUUUCUGCCUAUGAGGCAUUUGCCUCCAAGUAGCCUAUCCUUCAGAAUUACUUGUAGG", "RBNS enrichment (R)": 6.12}
{"Strand": "CUGUUCUGGCUUUUUAUCUUCUUAGCUCAUCUUAAAUAAGCAGUACACUUGGAUGCAGUGCGUCUGAAGUGCUAAUCAGUUGUAACAAUAGCACAAAUCGAACUUAGGAU", "RBNS enrichment (R)": 0.329}
{"Strand": "GUGUGUGUGUGUGUGUGUGUGUGCGUGCAUGUGUGUAUUAAGAGGGAUGACAUCCUGUUUAUUUUCCCAUUUGGAUGCCACAUGGUAUCCAAAGCUGGUAGAGCAGCUAU", "RBNS enrichment (R)": 1.69}
{"Strand": "CUUUGCCACUUCUGCAUUAUUUAGAAACAUACGUUAUUGUACAUUUGUAAACCAUUUACUGUCUGGGCAAUAGUGACUCCGUUUAAUAAAAGCUUCCGUAGUGCAUUGGU", "RBNS enrichment (R)": 0.671}
{"Strand": "CUGCGCUCCUCCCAACACAGACGCAGUGGCCUGCGCAGAGCACUCAGGGCCAGUGCCAUCUGUGAUUCAUGAUCACUAGGUUAUAGGUGAAAUCUCAGUAAGUUAUUUUG", "RBNS enrichment (R)": 0.396}
{"Strand": "GUGGAGAAAGCACUUGCUUUCAUCCUCUGGCAUCGGAAACUCCCCUAUGCACUUGAAGAUGGUUUAAAAGAUUAAAGAAACGAUUAAGAGAAAAGGUUGGAAGCUUUAUA", "RBNS enrichment (R)": 0.713}
{"Strand": "ACUUGCCUCAUUUCCCUAUCUUCUCCCCCACGGUAUCCUAAACUUUAGACUUCCCACUGUUCUGAAAGGAGACAUUGCUCUAUGUCUGCCUUCGACCACAGCAAGCCAUC", "RBNS enrichment (R)": 0.695}
{"Strand": "UGUGUAUUAAGCUUUUCAAACAAUGGAGGGGAUGGAGAGCCCUGGUGUCCUGACGGGAGCCAGGUCGGCCUGAGAGCUGUGCCGCUCCUCUGUCUUGUCAGUGGAGGUGC", "RBNS enrichment (R)": 0.496}
{"Strand": "UACAGUUUUACAUUUAAACGCACAGUCUUACGUGGACAAAUGCAAGCACAAGCCUAAAGCAAGGUCAAGCAGAUGGCAAAACCGAAUUUGCCUGCAAAGAAAUCUAUUUA", "RBNS enrichment (R)": 0.438}
{"data": "Set 2", "target": "ABI1, truncated, D143A, DHFR fusion (Arabidopsis thaliana)", "technique": "DHFR PCA, deep sequencing", "sample": "yeast", "notes": "methotrexate growth selection, single substitutions", "with": "(+)-ABA 0.11 µM", "baseline": "wild-type fitted maximum", "reading": "higher = stronger binding", "starting sequence": "PYL1, truncated, DHFR fusion (Arabidopsis thaliana); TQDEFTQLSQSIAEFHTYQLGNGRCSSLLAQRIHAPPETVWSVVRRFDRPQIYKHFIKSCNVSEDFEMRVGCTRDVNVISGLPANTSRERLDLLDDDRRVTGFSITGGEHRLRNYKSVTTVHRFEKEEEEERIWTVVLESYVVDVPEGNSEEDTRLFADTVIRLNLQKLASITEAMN; partner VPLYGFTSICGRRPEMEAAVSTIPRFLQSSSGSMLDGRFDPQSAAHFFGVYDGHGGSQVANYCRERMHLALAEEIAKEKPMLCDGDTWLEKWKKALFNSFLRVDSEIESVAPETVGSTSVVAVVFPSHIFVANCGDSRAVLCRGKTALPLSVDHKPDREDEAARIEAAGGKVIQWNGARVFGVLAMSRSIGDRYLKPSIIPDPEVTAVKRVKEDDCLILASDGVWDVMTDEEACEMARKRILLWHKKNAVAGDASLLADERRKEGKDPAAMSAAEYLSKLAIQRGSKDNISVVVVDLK"}
{"Substitution": "V118F", "relative binding score": "-4.45%"}
{"Substitution": "V76R", "relative binding score": "-2.03%"}
{"Substitution": "V142E", "relative binding score": "11.6%"}
{"Substitution": "N22C", "relative binding score": "15.6%"}
{"Substitution": "N114G", "relative binding score": "9.09%"}
{"Substitution": "K58R", "relative binding score": "26.5%"}
{"Substitution": "A35T", "relative binding score": "7.54%"}
{"Substitution": "I105K", "relative binding score": "10.3%"}
{"Substitution": "G21K", "relative binding score": "26.8%"}
{"Substitution": "A84E", "relative binding score": "22%"}
{"Substitution": "E109R", "relative binding score": "-3.8%"}
{"Substitution": "T106L", "relative binding score": "58%"}
{"Substitution": "T73N", "relative binding score": "16%"}
{"Substitution": "Q51Y", "relative binding score": "9.35%"}
{"Substitution": "E14P", "relative binding score": "-20.6%"}
{"data": "Set 3", "target": "Sal-like protein 4, full length isoform B (SALL4, Homo sapiens, UniProt Q9UJQ4-2, residues 1-616)", "technique": "universal PBM", "molecule type": "double-stranded DNA, one strand shown", "sample": "in vitro", "concentration": "not given", "notes": "8-mer, flanks averaged, mean of replicates", "reading": "higher = stronger binding"}
{"Strand": "ACCGATTG", "E-score": 0.0941}
{"Strand": "ACCAGGGA", "E-score": -0.199}
{"Strand": "AGAGAGCC", "E-score": -0.225}
{"Strand": "GCTCTCCC", "E-score": -0.192}
{"Strand": "CAACACTG", "E-score": 0.117}
{"Strand": "ATCAATTA", "E-score": 0.316}
{"Strand": "AAAGCGTG", "E-score": -0.0865}
{"Strand": "CCTAAGCA", "E-score": -0.0574}
{"Strand": "TGTCTAAA", "E-score": 0.214}
{"Strand": "ATGAGGGG", "E-score": -0.00229}
{"Strand": "AGTCTTCC", "E-score": -0.132}
{"Strand": "AATGCGAC", "E-score": -0.0788}
{"Strand": "CCGGACGA", "E-score": -0.167}
{"Strand": "GCCGTCGC", "E-score": -0.328}
{"Strand": "CTCTATCA", "E-score": 0.106}
{"Strand": "CCGACTTA", "E-score": 0.0882}
{"Strand": "ACTAGGAA", "E-score": 0.0792}
{"Strand": "CATCGGAA", "E-score": 0.0258}
{"Strand": "CACAACGA", "E-score": 0.145}
{"Strand": "AGGGTCGC", "E-score": -0.24}
{"Strand": "CTTAGTGA", "E-score": -0.111}
{"Strand": "GTCTACCA", "E-score": -0.104}
{"Strand": "AAAGAGTT", "E-score": 0.209}
{"data": "Set 4", "target": "Histone acetyltransferase KAT6A, winged helix 2, GST fusion (KAT6A, Homo sapiens, UniProt Q92794, residues 85-181)", "technique": "protein binding microarray", "molecule type": "double-stranded DNA, one strand shown", "sample": "in vitro", "concentration": "not given", "notes": "8-mer, flanks averaged, mean of 2 arrays, mostly near background", "baseline": "not given", "reading": "higher = stronger binding", "Residues (chain)": "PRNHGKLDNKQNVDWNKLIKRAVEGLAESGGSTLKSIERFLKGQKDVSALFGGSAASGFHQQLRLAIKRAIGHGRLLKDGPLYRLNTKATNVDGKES"}
{"Strand": "CGCATCAA", "E-score": 0.0419}
{"Strand": "GACGATAA", "E-score": -0.0296}
{"Strand": "ACCCTCTC", "E-score": -0.0315}
{"Strand": "CTGGAGCC", "E-score": 0.0161}
{"Strand": "ACCTGACT", "E-score": -0.046}
{"Strand": "AGTGGTCG", "E-score": 0.0446}
{"Strand": "AATACATC", "E-score": -0.0603}
{"Strand": "CACATTAG", "E-score": -0.117}
{"Strand": "GTCAACTA", "E-score": -0.0315}
{"Strand": "ACGAGAAG", "E-score": -0.0925}
{"Strand": "ATTTTCGA", "E-score": 0.0608}
{"Strand": "CCAGAAAA", "E-score": 0.119}
{"Strand": "CGTGTCGC", "E-score": 0.176}
{"Strand": "AGATCGAA", "E-score": 0.168}
{"Strand": "GTTAAAAC", "E-score": -0.0328}
{"Strand": "CAGTTAAA", "E-score": -0.0148}
{"Strand": "AAAGTACC", "E-score": 0.0309}
{"Strand": "GTCCCAAA", "E-score": 0.1}
{"Strand": "CCACGCCA", "E-score": -0.00312}
{"data": "Set 5", "target": "CEBPA, bZIP domain (human)", "technique": "DHFR protein complementation", "sample": "yeast", "notes": "single substitutions, most at no-binding floor", "baseline": "wild-type JUN-FOS pair", "reading": "higher = stronger binding", "starting sequence": "JUN, bZIP domain (human); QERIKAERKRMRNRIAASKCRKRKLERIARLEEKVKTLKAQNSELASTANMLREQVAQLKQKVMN; partner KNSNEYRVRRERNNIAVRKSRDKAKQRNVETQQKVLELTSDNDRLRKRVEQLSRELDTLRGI"}
{"Substitution": "E32R", "binding fitness": "-1.38 natural log"}
{"Substitution": "R53Q", "binding fitness": "-1.33 natural log"}
{"Substitution": "R53W", "binding fitness": "-1.45 natural log"}
{"Substitution": "A40W", "binding fitness": "-1.49 natural log"}
{"Substitution": "A40D", "binding fitness": "-0.959 natural log"}
{"Substitution": "M51E", "binding fitness": "-1.5 natural log"}
{"Substitution": "Q41D", "binding fitness": "-1.45 natural log"}
{"Substitution": "K36Q", "binding fitness": "-1.5 natural log"}
{"Substitution": "L38E", "binding fitness": "-1.54 natural log"}
{"Substitution": "A40L", "binding fitness": "-1.5 natural log"}
{"Substitution": "N42M", "binding fitness": "-1.53 natural log"}
{"Substitution": "A46V", "binding fitness": "-1.37 natural log"}
{"Substitution": "L59S", "binding fitness": "-1.47 natural log"}
{"Substitution": "L52P", "binding fitness": "-1.46 natural log"}
{"data": "Set 6", "target": "CCND1, cyclin fold, Cln2 fusion (human)", "technique": "yeast growth competition, sequencing", "sample": "yeast", "notes": "weak parent motif", "baseline": "not given", "reading": "higher = stronger binding", "starting sequence": "MICAL3 docking peptide (human); LQLRRQLSFSEDS"}
{"Substitution": "LQLRRQLSFSYDS [E11Y]", "normalised enrichment score": -0.0332}
{"Substitution": "LQLYRQLSFSEDS [R4Y]", "normalised enrichment score": 0.546}
{"Substitution": "LQNRRQLSFSEDS [L3N]", "normalised enrichment score": -0.0641}
{"Substitution": "LQLRRQLSFSSDS [E11S]", "normalised enrichment score": 0.328}
{"Substitution": "LQLRRQLLFSEDS [S8L]", "normalised enrichment score": 0.019}
{"Substitution": "LQLQRQLSFSEDS [R4Q]", "normalised enrichment score": 0.289}
{"Substitution": "LQPRRQLSFSEDS [L3P]", "normalised enrichment score": 1.14}
{"Substitution": "LQLRRQLNFSEDS [S8N]", "normalised enrichment score": 0.203}
{"Substitution": "LQLRRQLAFSEDS [S8A]", "normalised enrichment score": -0.269}
{"Substitution": "LQLRRQLSFFEDS [S10F]", "normalised enrichment score": 0.0458}
{"Substitution": "LQLRRMLSFSEDS [Q6M]", "normalised enrichment score": 0.268}
{"Substitution": "LGLRRQLSFSEDS [Q2G]", "normalised enrichment score": 0.0541}
{"Substitution": "LQYRRQLSFSEDS [L3Y]", "normalised enrichment score": -0.071}
{"Substitution": "LQLRRQLSFSLDS [E11L]", "normalised enrichment score": 0.306}
{"Substitution": "LQLRRQLSRSEDS [F9R]", "normalised enrichment score": 0.125}
{"Substitution": "LQLRFQLSFSEDS [R5F]", "normalised enrichment score": -0.367}
{"Substitution": "LQSRRQLSFSEDS [L3S]", "normalised enrichment score": 1.12}
{"Substitution": "LQLRRQLSFSMDS [E11M]", "normalised enrichment score": -0.0765}
{"note": "Excerpt of the above (set 5):"}
{"Substitution": "R53Q", "binding fitness": "-1.33 natural log"}
{"Substitution": "E32R", "binding fitness": "-1.38 natural log"}
{"Substitution": "A40W", "binding fitness": "-1.49 natural log"}
{"Substitution": "A40D", "binding fitness": "-0.959 natural log"}
{"Substitution": "R53W", "binding fitness": "-1.45 natural log"}
